Measurements pooled from the literature.
Each numbered part is a random draw from the data of one study; scales do not carry over between parts.
Sequence of UniProt P23975 (whole entry, looked up): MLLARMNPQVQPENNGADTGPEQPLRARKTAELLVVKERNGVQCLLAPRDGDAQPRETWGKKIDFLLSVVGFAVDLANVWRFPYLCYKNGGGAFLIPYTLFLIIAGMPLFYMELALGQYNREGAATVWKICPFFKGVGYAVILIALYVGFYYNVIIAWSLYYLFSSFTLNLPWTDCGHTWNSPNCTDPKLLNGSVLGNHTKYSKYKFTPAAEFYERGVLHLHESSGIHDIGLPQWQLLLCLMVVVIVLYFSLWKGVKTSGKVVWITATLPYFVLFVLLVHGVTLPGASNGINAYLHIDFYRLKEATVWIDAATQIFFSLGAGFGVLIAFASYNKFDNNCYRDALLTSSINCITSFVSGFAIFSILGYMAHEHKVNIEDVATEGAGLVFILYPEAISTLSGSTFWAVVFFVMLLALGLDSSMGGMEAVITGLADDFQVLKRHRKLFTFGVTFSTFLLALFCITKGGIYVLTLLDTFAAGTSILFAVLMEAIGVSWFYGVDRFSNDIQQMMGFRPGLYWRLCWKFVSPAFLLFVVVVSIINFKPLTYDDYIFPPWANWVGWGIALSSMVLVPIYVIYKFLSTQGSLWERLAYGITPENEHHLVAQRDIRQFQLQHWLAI
Sequence of UniProt P08908 (whole entry, looked up): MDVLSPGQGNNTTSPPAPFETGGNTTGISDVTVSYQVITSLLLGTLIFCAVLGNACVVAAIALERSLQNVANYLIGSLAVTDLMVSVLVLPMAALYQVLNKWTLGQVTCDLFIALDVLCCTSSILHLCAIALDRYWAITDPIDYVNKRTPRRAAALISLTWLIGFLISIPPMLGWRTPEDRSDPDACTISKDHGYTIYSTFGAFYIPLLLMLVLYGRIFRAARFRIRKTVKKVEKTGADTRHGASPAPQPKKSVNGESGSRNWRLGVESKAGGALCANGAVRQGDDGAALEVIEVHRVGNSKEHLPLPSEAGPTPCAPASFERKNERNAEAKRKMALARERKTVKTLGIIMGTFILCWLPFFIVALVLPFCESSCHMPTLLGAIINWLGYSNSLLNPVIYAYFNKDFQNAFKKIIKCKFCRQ
Sequence of UniProt Q01959 (whole entry, looked up): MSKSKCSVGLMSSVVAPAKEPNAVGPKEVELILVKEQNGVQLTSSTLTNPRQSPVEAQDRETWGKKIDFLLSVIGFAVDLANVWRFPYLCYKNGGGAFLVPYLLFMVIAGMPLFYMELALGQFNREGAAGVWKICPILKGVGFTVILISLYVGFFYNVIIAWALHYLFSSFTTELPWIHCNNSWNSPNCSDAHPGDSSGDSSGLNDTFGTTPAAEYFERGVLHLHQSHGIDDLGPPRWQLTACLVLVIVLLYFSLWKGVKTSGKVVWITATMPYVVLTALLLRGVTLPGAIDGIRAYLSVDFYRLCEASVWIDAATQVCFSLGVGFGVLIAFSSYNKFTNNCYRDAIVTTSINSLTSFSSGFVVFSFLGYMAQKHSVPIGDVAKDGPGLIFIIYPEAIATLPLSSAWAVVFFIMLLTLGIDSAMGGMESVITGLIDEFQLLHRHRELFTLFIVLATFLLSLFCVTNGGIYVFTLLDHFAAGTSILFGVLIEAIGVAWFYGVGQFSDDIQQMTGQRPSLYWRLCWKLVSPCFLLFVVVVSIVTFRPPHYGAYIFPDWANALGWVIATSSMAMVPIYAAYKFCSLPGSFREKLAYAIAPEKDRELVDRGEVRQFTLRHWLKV
Sequence of UniProt P31645 (whole entry, looked up): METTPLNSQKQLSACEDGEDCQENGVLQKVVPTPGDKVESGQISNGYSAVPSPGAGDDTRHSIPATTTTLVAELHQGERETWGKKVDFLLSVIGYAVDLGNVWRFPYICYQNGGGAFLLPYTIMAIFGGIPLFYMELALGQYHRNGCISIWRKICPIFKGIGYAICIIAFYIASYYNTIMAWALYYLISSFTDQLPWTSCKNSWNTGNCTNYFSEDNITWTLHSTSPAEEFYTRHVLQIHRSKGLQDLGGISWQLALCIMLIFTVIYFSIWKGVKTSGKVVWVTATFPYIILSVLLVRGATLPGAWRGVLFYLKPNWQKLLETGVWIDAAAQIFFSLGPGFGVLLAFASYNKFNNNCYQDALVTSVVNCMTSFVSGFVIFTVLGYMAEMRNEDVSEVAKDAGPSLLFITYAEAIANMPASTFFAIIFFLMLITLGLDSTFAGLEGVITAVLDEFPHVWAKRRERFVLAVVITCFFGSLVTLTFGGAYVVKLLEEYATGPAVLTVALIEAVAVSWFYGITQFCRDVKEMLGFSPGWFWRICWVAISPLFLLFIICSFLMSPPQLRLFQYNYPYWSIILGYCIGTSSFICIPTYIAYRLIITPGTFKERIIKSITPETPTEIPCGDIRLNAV

Block 1
SMILES: CNC(=N)NCCC[C@H](NC(=O)[C@H](CC(C)C)NC(=O)NNC(=O)[C@H](Cc1ccccc1)NC(=O)[C@H](CO)NC(=O)[C@H](CC(N)=O)NC(=O)[C@@H](Cc1ccncc1)NC(=O)[C@H](N)Cc1ccc(O)cc1)C(=O)N[C@@H](Cc1ccccc1)C(N)=O
Observed: ligand displacement
Tested at: 10 µM
Endpoint: inhibition
SLC6A4 (Homo sapiens, UniProt P31645): 8.84%
HTR1A (Homo sapiens, UniProt P08908); radioligand: 18.5%
SLC6A2 (Homo sapiens, UniProt P23975): 5.4%
SLC6A3 (Homo sapiens, UniProt Q01959): 12%

Block 2
Target: DNA polymerase theta, ATPase domain (POLQ, Homo sapiens, UniProt O75417)
Sequence of UniProt O75417 (whole entry, unmodified, looked up): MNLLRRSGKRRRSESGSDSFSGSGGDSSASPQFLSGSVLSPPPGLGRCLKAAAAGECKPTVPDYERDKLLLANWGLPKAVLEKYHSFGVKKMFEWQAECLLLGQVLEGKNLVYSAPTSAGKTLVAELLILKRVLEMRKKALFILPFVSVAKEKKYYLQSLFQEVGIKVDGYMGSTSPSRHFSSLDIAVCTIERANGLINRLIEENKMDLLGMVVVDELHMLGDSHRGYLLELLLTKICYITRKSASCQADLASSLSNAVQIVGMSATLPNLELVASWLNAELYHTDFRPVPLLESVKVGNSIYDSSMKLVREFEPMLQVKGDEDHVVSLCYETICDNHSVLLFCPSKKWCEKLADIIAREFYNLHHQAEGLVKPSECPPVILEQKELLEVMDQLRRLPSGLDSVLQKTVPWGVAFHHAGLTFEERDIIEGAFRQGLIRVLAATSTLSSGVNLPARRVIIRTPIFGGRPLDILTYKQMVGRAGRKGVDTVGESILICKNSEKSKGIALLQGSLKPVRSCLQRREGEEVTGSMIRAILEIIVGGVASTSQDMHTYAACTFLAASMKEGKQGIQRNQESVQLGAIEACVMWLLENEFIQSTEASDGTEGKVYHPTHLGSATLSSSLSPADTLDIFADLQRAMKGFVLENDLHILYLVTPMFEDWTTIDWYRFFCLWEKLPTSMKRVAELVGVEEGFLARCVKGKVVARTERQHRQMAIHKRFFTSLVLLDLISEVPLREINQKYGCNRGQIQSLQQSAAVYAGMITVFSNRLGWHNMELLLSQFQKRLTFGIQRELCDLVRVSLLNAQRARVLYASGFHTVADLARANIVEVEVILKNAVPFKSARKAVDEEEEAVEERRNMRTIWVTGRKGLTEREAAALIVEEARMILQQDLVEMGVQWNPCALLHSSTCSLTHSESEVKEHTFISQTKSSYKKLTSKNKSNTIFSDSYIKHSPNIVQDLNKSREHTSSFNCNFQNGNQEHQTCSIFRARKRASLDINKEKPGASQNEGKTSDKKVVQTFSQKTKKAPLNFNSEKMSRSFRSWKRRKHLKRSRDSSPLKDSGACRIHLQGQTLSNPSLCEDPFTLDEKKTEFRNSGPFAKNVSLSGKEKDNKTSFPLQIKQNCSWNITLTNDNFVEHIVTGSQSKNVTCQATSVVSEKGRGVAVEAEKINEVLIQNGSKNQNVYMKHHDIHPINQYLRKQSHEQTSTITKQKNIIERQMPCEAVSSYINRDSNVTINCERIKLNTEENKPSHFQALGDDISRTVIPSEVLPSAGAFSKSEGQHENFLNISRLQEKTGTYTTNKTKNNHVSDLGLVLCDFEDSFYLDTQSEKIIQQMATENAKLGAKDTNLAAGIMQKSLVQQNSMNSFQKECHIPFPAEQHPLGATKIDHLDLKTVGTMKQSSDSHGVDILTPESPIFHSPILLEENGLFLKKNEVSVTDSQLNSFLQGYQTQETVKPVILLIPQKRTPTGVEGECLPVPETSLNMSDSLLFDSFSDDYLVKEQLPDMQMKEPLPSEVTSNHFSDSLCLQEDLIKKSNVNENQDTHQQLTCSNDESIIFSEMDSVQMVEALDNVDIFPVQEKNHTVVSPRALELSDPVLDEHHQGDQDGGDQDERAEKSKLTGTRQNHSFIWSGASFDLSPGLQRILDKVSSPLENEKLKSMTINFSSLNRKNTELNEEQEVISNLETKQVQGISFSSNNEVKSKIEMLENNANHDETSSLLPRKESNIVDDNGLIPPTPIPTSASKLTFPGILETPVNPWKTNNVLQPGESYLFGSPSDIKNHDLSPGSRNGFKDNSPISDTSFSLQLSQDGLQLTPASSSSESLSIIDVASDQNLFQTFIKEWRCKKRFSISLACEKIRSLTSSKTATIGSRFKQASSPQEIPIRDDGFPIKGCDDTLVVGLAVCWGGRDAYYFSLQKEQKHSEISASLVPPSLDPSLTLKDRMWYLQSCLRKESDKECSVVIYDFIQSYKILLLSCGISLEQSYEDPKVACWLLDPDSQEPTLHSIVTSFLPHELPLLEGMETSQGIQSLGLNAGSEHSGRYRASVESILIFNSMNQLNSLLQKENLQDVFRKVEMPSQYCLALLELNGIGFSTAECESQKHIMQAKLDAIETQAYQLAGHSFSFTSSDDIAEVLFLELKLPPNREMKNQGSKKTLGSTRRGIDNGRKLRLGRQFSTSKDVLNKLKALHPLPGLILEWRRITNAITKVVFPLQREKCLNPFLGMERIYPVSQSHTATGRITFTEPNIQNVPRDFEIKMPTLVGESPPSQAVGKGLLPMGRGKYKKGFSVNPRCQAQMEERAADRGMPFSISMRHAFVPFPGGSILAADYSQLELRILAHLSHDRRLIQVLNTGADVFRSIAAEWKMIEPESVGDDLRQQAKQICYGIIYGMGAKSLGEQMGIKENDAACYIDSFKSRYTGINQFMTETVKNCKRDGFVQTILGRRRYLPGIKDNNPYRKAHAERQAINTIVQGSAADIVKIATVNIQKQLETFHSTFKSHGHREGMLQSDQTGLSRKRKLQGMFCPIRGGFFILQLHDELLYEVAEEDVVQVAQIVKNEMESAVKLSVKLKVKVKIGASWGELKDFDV
Observed: enzyme activity
Action: inhibitor
Tested at: 77 µM
Endpoint: remaining activity
CC(C)(C)OC(=O)NC1[C@H]2CNC[C@@H]12 (stereo partly shown): 100%
CNCC(=O)c1ccc(O)c(O)c1: 90%
NCC(CP(=O)(O)O)c1ccc(Cl)cc1 (stereo not shown): 97.7%
O=c1[nH]c2ccccc2n1CCCN1CCC(n2c(=O)[nH]c3cc(Cl)ccc32)CC1: 107%

Further values, each from its own experiment
COc1cc2c(cc1O)CC1c3c(cc(O)c(OC)c3-2)CCN1C (stereo not shown)
remaining compound (human, microsomes or S9; 2 µM, 0.5 h): 76%

CNC[C@H](O)c1ccc(O)c(O)c1
inhibition (chymotrypsin; enzyme activity; concentration not given): 5.3%

Some of these lines once more (block 1):
SLC6A4 (Homo sapiens, UniProt P31645): 8.84%
SLC6A2 (Homo sapiens, UniProt P23975): 5.4%
